Assay results gathered from unrelated publications.
Compare with care: the assays were run in different laboratories. ± marks the error that the study gave.
Route: intravenous

CCCC[C@H](NC(=O)COCCOCCNC(=O)c1ccc(NN)nc1)C(=O)N[C@H]1CC(=O)NCCCC[C@@H](C(N)=O)NC(=O)[C@H](Cc2c[nH]c3ccccc23)NC(=O)[C@H](CCCNC(=N)N)NC(=O)[C@@H](Cc2ccccc2)NC(=O)[C@H](Cc2c[nH]cn2)NC1=O [technetium-99m labelled]  tissue uptake (C57 mouse, female, B16/F1 melanoma, muscle; 0.037 MBq, 2 h): 0.03 ± 0.01 %ID/g
N=C(N)NCCC[C@@H]1NC(=O)[C@H](CCCCNC(=O)CCC(NC(=S)Nc2ccc(CC3CN(CC(=O)O)CCN(CC(=O)O)CCN(CC(=O)O)CCN3CC(=O)O)cc2)C(=O)NCCCC[C@@H]2NC(=O)[C@@H](Cc3ccc(O)cc3)NC(=O)[C@H](CC(=O)O)NC(=O)CNC(=O)[C@H](CCCNC(=N)N)NC2=O)NC(=O)[C@@H](Cc2ccc(O)cc2)NC(=O)[C@H](CC(=O)O)NC(=O)CNC1=O (some centres unmarked) [scandium-44 labelled]  tissue uptake (PET imaging; female athymic nude mouse, U-87 MG xenograft tumour; 5.5 to 7.4 MBq, 4 h): 3 ± 1.25 %ID/g
N=C(N)NCCC[C@@H]1NC(=O)[C@H](CC(=O)NC23CNCCNCC(N)(CNCCNC2)CNCCNC3)NC(=O)[C@@H](Cc2ccccc2)NC(=O)[C@H](CC(=O)O)NC(=O)CNC1=O [copper-64 labelled]  tissue uptake (Nu/Nu mouse, male, tumour-bearing, lung; 10 µCi, 2 h): 1.05 ± 0.13 %ID/g
N=C(N)NCCC[C@@H]1NC(=O)[C@H](CCCCNC(=O)CCOCCOCCOCCOCCNC(=O)CC[C@H](NC(=O)CCOCCOCCOCCOCCNC(=O)CC[C@H](NC(=O)CN2CCN(CC(=O)O)CCN(CC(=O)O)CCN(CC(=O)O)CC2)C(=O)NCCOCCOCCOCCOCCC(=O)N[C@@H](CCC(=O)NCCOCCOCCOCCOCCC(=O)NCCCC[C@@H]2NC(=O)[C@@H](Cc3ccccc3)NC(=O)[C@H](CC(=O)O)NC(=O)CNC(=O)[C@H](CCCNC(=N)N)NC2=O)C(=O)NCCOCCOCCOCCOCCC(=O)NCCCC[C@@H]2NC(=O)[C@@H](Cc3ccccc3)NC(=O)[C@H](CC(=O)O)NC(=O)CNC(=O)[C@H](CCCNC(=N)N)NC2=O)C(=O)NCCOCCOCCOCCOCCC(=O)NCCCC[C@@H]2NC(=O)[C@@H](Cc3ccccc3)NC(=O)[C@H](CC(=O)O)NC(=O)CNC(=O)[C@H](CCCNC(=N)N)NC2=O)NC(=O)[C@@H](Cc2ccccc2)NC(=O)[C@H](CC(=O)O)NC(=O)CNC1=O [indium-111 labelled]  tissue uptake (athymic nude mouse U-87 MG xenograft, heart; 1 h, added: RGD2 co-injected 14 mg/kg): 0.4 %ID/g
CCCC[C@H](NC(=O)[C@H](Cc1cccs1)NC(=O)[C@H](Cc1c[nH]cn1)NC(=O)CCNC(=O)[C@@H](NC(=O)[C@H](C)NC(=O)[C@H](Cc1c[nH]c2ccccc12)NC(=O)[C@H](CCC(N)=O)NC(=O)[C@H](Cc1cccs1)NC(=O)CN1CCC(NC(=O)CN(CCN(CCN(CC(=O)O)CC(=O)O)CC(=O)O)CC(=O)O)CC1)C(C)C)C(N)=O [indium-111 labelled]  tissue uptake (Swiss nu/nu mouse, male, PC-3 tumour xenograft, tumour; 10 pmol, 1 h): 0.9 ± 0.2 %ID/g
CSCC[C@H](NC(=O)[C@H](CC(C)C)NC(=O)[C@H](Cc1c[nH]cn1)NC(=O)CNC(=O)[C@@H](NC(=O)[C@H](C)NC(=O)[C@H](Cc1c[nH]c2ccccc12)NC(=O)[C@H](CCC(N)=O)NC(=O)CCCCCNC(=O)CNC(=O)CNC(=O)CNC(=O)CSC(C)=O)C(C)C)C(N)=O [technetium-99m labelled]  tissue uptake (Swiss mouse, kidney; 18.5 MBq, 5 min): 1.81 ± 0.06 %ID/g
N=C(N)NCCC[C@@H]1NC(=O)[C@H](CCCCNC(=O)CNC(=O)CNC(=O)CNC(=O)CC[C@H](NC(=O)CNC(=O)CNC(=O)CNC(=O)c2ccc(NN=Cc3ccccc3S(=O)(=O)O)nc2)C(=O)NCC(=O)NCC(=O)NCC(=O)NCCCC[C@@H]2NC(=O)[C@@H](Cc3ccccc3)NC(=O)[C@H](CC(=O)O)NC(=O)CNC(=O)[C@H](CCCNC(=N)N)NC2=O)NC(=O)[C@@H](Cc2ccccc2)NC(=O)[C@H](CC(=O)O)NC(=O)CNC1=O [technetium-99m labelled]  tissue uptake (athymic nu/nu mouse, female, MDA-MB-435 xenograft, liver; 120 min): 2.47 ± 0.25 %ID/g
CSCC[C@H](NC(=O)[C@H](CC(C)C)NC(=O)[C@H](Cc1c[nH]cn1)NC(=O)CNC(=O)[C@@H](NC(=O)[C@H](C)NC(=O)[C@H](Cc1c[nH]c2ccccc12)NC(=O)[C@H](CCC(N)=O)NC(=O)[C@H](CC(N)=O)NC(=O)CNC(=O)[C@H](Cc1ccc(O)cc1)NC(=O)[C@H](CCCNC(=N)N)NC(=O)[C@H](CCC(N)=O)NC(=O)[C@@H]1CCCN1C(=O)CN1CCN(CC(=O)O)CCN(CC(=O)O)CCN(CC(=O)O)CC1)C(C)C)C(N)=O [indium-111 labelled]  tissue uptake (Swiss nu/nu mouse, male, PC-3 tumour xenograft, tumour; 10 pmol, 1 h): 2.1 ± 0.9 %ID/g
